Measured values collected from several papers.
Parts stem from different laboratories: compare values within a part only. Positions count from the first letter of the parent shown.

Block 1 — target: CREM, bZIP domain (human); technique: DHFR protein complementation; sample: yeast; reference: wild-type JUN-FOS pair; reading: higher = stronger binding
Setting: single substitutions, most at no-binding floor
Starting sequence: JUN, bZIP domain (human); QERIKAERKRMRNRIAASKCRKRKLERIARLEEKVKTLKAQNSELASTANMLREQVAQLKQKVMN; partner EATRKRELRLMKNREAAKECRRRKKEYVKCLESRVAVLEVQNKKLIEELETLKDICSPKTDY
Change | binding fitness [natural log]
A46I | -1.3
Q41S | -1.54
A29G | -1.47
K36D | -1.36
M51W | -1.55
I28L | -1.58
K34M | -1.29
M51G | -1.46

Block 2 — target: Sox-I, HMG box (Salpingoeca helianthica); technique: Spec-seq; molecule type: double-stranded DNA, one strand shown; sample: in vitro; tested at: not given; setting: whole probe, mean of replicates; reference: not given; reading: lower = stronger binding; constant ends, left off below: GAGTCGTCTCGTCAGCAC … CCGTAGAGCACTCAGGTC
Construct (chain): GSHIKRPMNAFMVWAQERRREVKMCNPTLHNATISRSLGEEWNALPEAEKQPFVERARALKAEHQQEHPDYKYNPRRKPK
Sequence | relative binding energy [ln ratio]
TCAAGTT | 0.528
CATTATT | -1.27
ACGTGTT | -0.0927
CATGCAG | 1.01
CATCGAA | 0.827
CATACTC | 0.567
CATGCCG | 1.06

Block 3 — target: CCNB2, cyclin fold, Cln2 fusion (human); technique: yeast growth competition, sequencing; sample: yeast; setting: weak parent motif; reference: not given; reading: higher = stronger binding
Starting sequence: CDC25A docking peptide (human); PPHRRRLLFACSP
Change | normalised enrichment score
P1M | 0.355
A10I | -0.221
F9S | 0.946
P2K | 0.516
P13D | 1.19
A10V | 0.302
P2T | 0.818
C11F | 0.464

Mixed results
Molecule | target | test | test system | setting | scale | measurement | result
PhoQ, residues 284 288 289 292 302 303 SMYGEC | PhoP, residues 12 14 15 18 19 DLLYY (Escherichia coli, UniProt P23836) | Sort-seq, refers to: YFP reporter | E. coli | PhoQ-PhoP variant library, added: 10 µM Mg2+ | reference: high Mg2+ state, higher = stronger signaling | fold induction | 3.67
